Measured values collected from several papers.
Lines come from different studies, so protocols differ. Values joined by “and” are separate records of one study, mostly repeats; a detail may differ. Numbers after ± are the reported error.

O=C(Nc1ccccc1)C1CCN(C(=O)Oc2cccnc2)CC1
adverse event Lethargy (healthy women; oral, 100 mg, 9 days): 7.7%

C1=Cc2nc1cc1ccc([n-]1)c(C1CC1)c1nc(cc3ccc([n-]3)c2C2CC2)C=C1.CC(=O)[O-].[Mn+3]
plasma concentration (LC-MS/MS; Sprague-Dawley rat, plasma; oral gavage, dose not given, 30 min, individual rat Rat1): 77 ng/mL

O=C(O)CCCOc1ccc(F)cc1-c1cc(-c2ccccc2C(F)(F)F)n(-c2ccccc2)n1
blood chemistry (item: TG; Crl:CD(SD) rats, female, blood; iv, 25 µg/kg, 14 days): 15.1 ± 7.3 mg/dL

CCc1ccc(CC/C=C/c2ccc3c(c2)C(=O)CC3)cc1
CK serum activity (Sprague-Dawley rat, female; oral, 30 mg/kg/day, 14 days): 493 U/L

O=C(O)CNCP(=O)(O)O
final permeate concentration (ultrafiltration; cow milk whey; 2000 nM nominal in whole milk): 1930 nM

O=S(=O)(Nc1ccccc1)c1ccc(NC(=S)Nc2ccccc2)cc1
relative organ weight (mouse, male, liver; oral, 20 mg/kg daily, 14 days; reference: body weight): 5.66%

NCCCC[C@@H]1NC(=O)[C@@H](Cc2c[nH]c3ccccc23)NC(=O)[C@H](c2ccccc2)NC(=O)[C@@H]2C[C@@H](OC(=O)NCCN)CN2C(=O)[C@H](Cc2ccccc2)NC(=O)[C@H](Cc2ccc(OCc3ccccc3)cc2)NC1=O
placebo-corrected QTcF change (healthy volunteers, male; 600 µg twice daily, 4.0 h, post hoc): 7.3 ms

CCCCNC(=O)C1CCCN(Cc2nc(-c3ccc(Cl)cc3)oc2C)C1 (stereo not drawn)
cytotoxicity efficacy (Vero-E6; CellTiter-Glo ATP; concentration not given, 72 h, second round 5-point; reference: DMSO 0%, hyamine -100%, more negative, more toxic): -28.6%

COc1ccc2nc3cc(Cl)ccc3c(Nc3cc(CN4CCCC4)c(O)c(CN4CCCC4)c3)c2n1
basophils (mouse, blood; intraperitoneal, 14 mg/kg): 1.42%

CC(=O)c1c(C)c2cnc(Nc3ccc(C4CCN(CCS(C)(=O)=O)CC4)cn3)nc2n(C2CCCC2)c1=O
t1/2 (human, plasma; oral, 25 mg once daily, day 1, single dose): 6.1 h

C[C@]1(CO)Cc2ncn(-c3ccc(C#N)c(Cl)c3)c2C(=O)O1
drug-related Hyperhidrosis incidence (healthy humans; 10 mg, fasted): 0%

COc1cc2c(Oc3ccc4[nH]c(C)cc4c3F)ccnc2cc1OCC1(N)CC1
grade 1 or 2 Leukopenia (paediatric recurrent refractory sarcoma; 8 mg): 0%

CC(C)[C@@H](CN1CC[C@@](C)(c2cccc(O)c2)[C@@H](C)C1)NC(=O)[C@@]1(C)Cc2ccc(O)cc2CN1
Kp (rat; intraperitoneal, 5 mg/kg, brain over plasma AUClast): 1.71

CCN1[C@@H](C(=O)NC23CCC(C(=O)O)(CC2)CC3)[C@H](c2cccc(Cl)c2F)[C@]2(C(=O)Nc3cc(Cl)ccc32)C12CCCCC2
Myalgia incidence (patients with advanced solid tumours; oral, dose not given, all doses): 4.8%

Cn1nc(NS(C)(=O)=O)c2c(Cl)ccc(-n3c([C@H](Cc4cc(F)cc(F)c4)NC(=O)Cn4nc(C(F)F)c5c4C(F)(F)[C@@H]4C[C@H]54)nc4nc(OCCC(F)(F)F)ccc4c3=O)c21
tolerability (human; oral, dose not given, single and multiple doses): not toxic

CN1CC[C@@H](c2c(O)cc(O)c3c(=O)cc(-c4ccc(C(F)(F)F)cc4Cl)oc23)[C@@H]1CO
patients with adverse event (item: Hypotension; relapsed AML; oral, 200 mg, grade 3-4, intermittent dosing): 10%

COc1ncccc1-c1cnn2ccc(N3CCN(C(=O)OC(C)C)CC3)nc12
drug concentration (rat, CCI mechanical allodynia model, plasma; oral, 30 mg/kg, 240 min): 4.8 µM

C[C@H]1CN(C(=O)CC#N)[C@]12CCN(c1ncnc3[nH]ccc13)C2
Cmax at NOAEL (dog, female; oral, 3 mg/kg repeated, 3 months): 2230 ng/mL

COc1ccc([C@@H]2CC(=O)c3c(O)cc(O)cc3O2)cc1O
faecal excreted amount (male Sprague-Dawley rat, lean; oral, 100 mg/kg of neohesperidin, 0 to 12 h): 1150 ± 904 ng

CC(=O)O[C@@H]1CC[C@@]2(C)[C@@H](CC[C@]3(C)[C@@H]2C(=O)C=C2[C@@H]4[C@@H](C)[C@H](C)CC[C@]4(C)CC[C@]23C)[C@@]1(C)C(=O)O
terminal elimination rate constant (non-compartmental analysis; female Wistar rats, plasma; oral gavage, 1 mg/kg): 0.07 h⁻¹

CC1(C)[C@H](C(=O)OCc2cccc(Oc3ccccc3)c2)[C@@H]1C=C(Cl)Cl
enzyme contribution to clearance (item: CYP2C19; human, age 5 years, recombinant human CYP2C19; 0.1 µM): 3.57%

COc1cccc(Oc2ccccc2NC(=O)CNC(=O)c2cccc3ccccc23)c1
mean corpuscular volume (esterase-deficient SCID mice, male, blood; oral, 40 mg/kg/day, 14 days, toxicity study): 47 fL and 46 fL and 44 fL

COc1ncnn2ccc(-c3cnc4nc(C)n(Cc5nnc([C@@H](C)F)o5)c4c3)c12
patients with vomiting (human; oral, dose not given, grade 2): 14.3%

Oc1ccccc1-c1nc(-c2cccs2)c(-c2cccs2)[nH]1
cytotoxicity efficacy (Vero-E6; CellTiter-Glo ATP; concentration not given, 72 h, retest 8-point duplicates; reference: DMSO 0%, hyamine -100%, more negative, more toxic): -23.8%

COc1cc(C2C3=C(COC3=O)N(CCO)c3cc4c(cc32)CCC4)cc(OC)c1OC (stereo not drawn)
body weight (female C57BL/6 mice; intraperitoneal, 200 mg/kg, 0 h, single dose, mean): 23 g

CC(C)C[C@H](NC(=O)[C@H](CCCCN)NC(=O)OCC1c2ccccc2-c2ccccc21)C(=O)N[C@H](C(=O)N[C@@H](Cc1ccccc1)C(=O)N[C@@H](Cc1ccccc1)C(=O)N[C@@H](CCCCN)C(=O)NCC(=O)N[C@@H](Cc1ccccc1)C(=O)N[C@@H](C)C(=O)N[C@@H](Cc1c[nH]c2ccccc12)C(=O)N[C@@H](CC(N)=O)C(=O)N[C@H](C(=O)N[C@H]1CSSC[C@@H](C(=O)N[C@@H](Cc2c[nH]cn2)C(=O)N[C@@H](CCCNC(=N)N)C(=O)N[C@@H](CCCNC(=N)N)C(=O)N[C@@H](C)C(=O)N[C@@H](CC(N)=O)C(N)=O)NC(=O)[C@H](C(C)C)NC(=O)[C@H](CCCNC(=N)N)NC(=O)[C@H](C(C)C)NC(=O)CNC(=O)[C@H](CC(N)=O)NC(=O)[C@H](CCCNC(=N)N)NC(=O)[C@H](Cc2ccc(O)cc2)NC(=O)[C@H](C(C)C)NC1=O)C(C)C)C(C)C
haematocrit (ICR mice, blood; intraperitoneal, 10 mg/kg, day 5): 39.9 ± 0.58%

CO[C@H]1C[C@@H]2CC[C@@H](C)[C@@](O)(O2)C(=O)C(=O)N2CCCC[C@H]2C(=O)O[C@H]([C@H](C)C[C@@H]2CC[C@@H](OC(=O)NCCOCCOCCOCCOCCOCCOCCOCCOCCC(=O)N3CCc4cc(Cn5nc(-c6ccc7oc(N)nc7c6)c6c(N)ncnc65)ccc4C3)[C@H](OC)C2)C[C@@H](O)[C@H](C)/C=C(\C)[C@@H](O)[C@@H](OC)C(=O)[C@H](C)C[C@H](C)/C=C/C=C/C=C/1C
AE leading to discontinuation (patients with advanced solid tumours; intravenous, 12 mg weekly, grade 3 or higher): 16.7%

Some of these lines once more:
CC(C)[C@@H](CN1CC[C@@](C)(c2cccc(O)c2)[C@@H](C)C1)NC(=O)[C@@]1(C)Cc2ccc(O)cc2CN1
Kp (rat; intraperitoneal, 5 mg/kg, brain over plasma AUClast): 1.71

CCN1[C@@H](C(=O)NC23CCC(C(=O)O)(CC2)CC3)[C@H](c2cccc(Cl)c2F)[C@]2(C(=O)Nc3cc(Cl)ccc32)C12CCCCC2
Myalgia incidence (patients with advanced solid tumours; oral, dose not given, all doses): 4.8%

Cn1nc(NS(C)(=O)=O)c2c(Cl)ccc(-n3c([C@H](Cc4cc(F)cc(F)c4)NC(=O)Cn4nc(C(F)F)c5c4C(F)(F)[C@@H]4C[C@H]54)nc4nc(OCCC(F)(F)F)ccc4c3=O)c21
tolerability (human; oral, dose not given, single and multiple doses): not toxic
